# Assay results from different studies.
# Numbered parts are unrelated; each lists some results of a single study. Positions count from the first letter of the parent shown.

# Study 1 — target: NFE2, bZIP domain (human); method: DHFR protein complementation; sample: yeast; relative to: wild-type JUN-FOS pair; reading: higher = stronger binding
# Notes: single substitutions, most at no-binding floor
# Starting sequence: JUN, bZIP domain (human); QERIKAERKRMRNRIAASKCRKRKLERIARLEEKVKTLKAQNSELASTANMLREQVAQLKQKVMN; partner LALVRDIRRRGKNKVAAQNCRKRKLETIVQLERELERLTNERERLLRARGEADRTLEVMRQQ
Substitution,binding fitness
N42W,-1.54 natural log
M51V,-1.51 natural log
R30T,-1.34 natural log
A40L,-1.51 natural log
S47T,-1.48 natural log
Q55P,-1.46 natural log
E44R,-1.5 natural log
S43N,-1.34 natural log
R30S,-1.2 natural log
K36D,-1.42 natural log
V35A,-1.44 natural log
E33I,-1.58 natural log
R53H,-1.43 natural log
S43Q,-1.47 natural log
V35R,-1.35 natural log
K36E,-1.24 natural log
A46S,-1.35 natural log

# Study 2 — method: RNA Bind-n-Seq; form: RNA; sample: in vitro; concentration: 365 nM; relative to: no-protein control; reading: higher = stronger binding
# Target: RNA binding protein fox-1 homolog 2, RRM domain, GST-SBP tag (RBFOX2, Homo sapiens, UniProt O43251-10, residues 100-194)
# Notes: natural RNA segment, single round, ends assumed
# Construct (chain): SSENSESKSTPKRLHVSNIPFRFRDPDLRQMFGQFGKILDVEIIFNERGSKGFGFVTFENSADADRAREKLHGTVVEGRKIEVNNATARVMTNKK
Sequence,RBNS enrichment (R)
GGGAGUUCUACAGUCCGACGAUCCUGUCAAUGGGGGUGUAGUAUUUUUGCCAAAAUAUCAUGUUCAAUUUCAGUAGUUUGAUCAGUUGAAGGCUAGAAGUGUGAAGUGCAGAUGAGUGUGUGUUCUUCCCCAAUGGAAUUCUCGGGUGCCAA,2.78
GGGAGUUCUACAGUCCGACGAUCUAGACAGAGAGGGACGUGGGCAUGUUUUAUUUGGAGGGAUGUUUAUUCCCUGAGAUUACAGAAGUACCCAGAAGUGUCUGGGAUCCCUGUCACAUCUGUGUCAUGUUGUUUGGAAUUCUCGGGUGCCAA,0.566
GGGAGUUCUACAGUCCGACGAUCAUAUCUCUGUAAAAACAAACACUGUAACUUCUAAAUAAAUGUUUAGUCUUCCUUGUAACCUUCAUCUAGUCACGAGUGAGUCAGCGUUUUCUUUAGACGUCCGGCGUCCCUGGAAUUCUCGGGUGCCAA,0.185
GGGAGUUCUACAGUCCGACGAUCAUCUUUUGGGUUUGAAUGAAGGUUUUACAUAAGAAAUUAUUAAAAACAAGGGGGGUGGGUAAUAAAUGUAUAUAACAUUAAAUAAUGUAACGUAGGUGUAGAUUCCCAAAUGGAAUUCUCGGGUGCCAA,1.97
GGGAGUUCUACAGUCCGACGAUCCCUCUAGGCAUGAAGCCUUCCAGGGGCCGGGAUGGUAGGGAGUUUCACCCCUUCCUCCCUCCCCAAGCCUGCAAACCACCUUUGCUUUCAUUCCUUUCUCUGCGCCUGCCUGGAAUUCUCGGGUGCCAA,0.591
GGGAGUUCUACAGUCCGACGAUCUAAACUGCUCCUCUCAGCGCUUGACACCUCUGUGUGAGGGAGACCAACCUUCGCACCCAUCCGCCCCCGCAGGCCUGGGGAGAACACAGAUAUGCUUGCACAGGCUGUGGUGGAAUUCUCGGGUGCCAA,0.482
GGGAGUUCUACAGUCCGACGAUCCCCCUUUUCUGAUCAUUCGUGCGCAGAGGGCCUCCCAGUAAUGCCACGCUCUCCAUGCUAGAGAGCCUUCUCUUUCCUCUGAGGUUUGAACUGAUGUUCUGUGUCUUCACUGGAAUUCUCGGGUGCCAA,0.321
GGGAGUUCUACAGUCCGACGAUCUAGAAUUAAUGUCUUACUAAAGUGCCACAAUUAUUUUUUAAGUAGCUCAGUACAAAUUAAUUUAAGUAAAAAACGUUUUAGAAUUUCAAAUAUCCUAAAAUAGGAAAUACUGGAAUUCUCGGGUGCCAA,0.629
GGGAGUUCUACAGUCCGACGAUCAAUCCCAGCUACUCAGGAAGCUGAGGCAGGAAAAUCGCUUGAACCUGGGAGGUGGAAGUUGCAGUGAGCCGAGAUCGCACCACUGCACUCCAGCCUGGGUGACAAGAGCGUGGAAUUCUCGGGUGCCAA,0.253
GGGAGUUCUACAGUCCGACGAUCGCUCUGCAAAUAUCCCAAAGUUAUGCCUCUGAACACAUGUCUUCUAUAUGCAAGUUUUGUGAAACCUGCCUCCUUCCCGUGCAAUGUGUCCCUCCUCACAAGUGCUUAGUUGGAAUUCUCGGGUGCCAA,1.19
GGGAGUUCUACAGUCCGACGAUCCUUGCCUUGAUCCUGUUGUGGCAGUGUCUGUUCCUGCCCCAGGUGUGCUAUUCACGCAGGUUUAUUCCCUCCAUGGCCUCCGGGCUUUGCAUGUCUAUGAUGUGUGUGUCUGGAAUUCUCGGGUGCCAA,4.9
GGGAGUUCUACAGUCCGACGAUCCAGAACUGCCAAUUUCAGGACUGAGAUGUGUUUUUAAAAAACAAAUCCUUAUAAACUCCACUUUGUACUUUAGAUUUUAAAACUGGGGAAAAAUGUGAUAUUCUUUGGACUGGAAUUCUCGGGUGCCAA,0.531

# Study 3 — method: protein-binding microarray; form: double-stranded DNA, one strand shown; sample: in vitro; concentration: 940 nM top; notes: 60-bp whole probe; added: salmon DNA 0.4 mg/ml; relative to: random background probes; reading: higher = stronger binding; shared flanks, not repeated: GCCTAGCAC … GTCTTGATTCGCTTGACGCTGCTG
# Target: Interferon regulatory factor 5, full length, phosphomimetic (IRF5, Homo sapiens, UniProt Q13568-2, residues 1-514, S451D/S453D/S456D/S462D)
Sequence,fitted relative affinity [z-score]
TAGACCTAGAAAGAAACCACGTGCTAG,0.225
TACTAGAGTAAAACCCTGGCGTGCTAG,-0.524
TTTTTTTCATATATATATGAGTGCTAG,0.569
GACGGTAACCTACTGCTGACGTGCTAG,-0.295
TTAGATTTCGACTTTCGGTTAGTGCTA,3.98
TCAACTCTGTGCTTTCCTACTGTGCTA,0.601
AAGCTCCTATCTTATGATATAGTGCTA,-0.0545
GACGATTTCGGGTTTCGATACGTGCTA,5.15
GACGGTATCGATTATCGGGACGTGCTA,7.85
GACGGTATCCTTATCTTGACGTGCTAG,0.386
GACGGTTTCGGGATTGGGGACGTGCTA,7.04
GACGATTTCAGTCTCGACACGTGCTAG,1.69
GTCGGTATCGGTATCGGGACGTGCTAG,11.3
TCATGTCTGGGATTTTGACTGTGCTAG,-0.282
GACGGTCTCGATTTCGGGACGTGCTAG,2.93
GACGGGTTCGGGTATCGGGACGTGCTA,0.763
TTAGGTATCGACTATCTGTTAGTGCTA,5.93
GACGGTTTAGACTATCGGGACGTGCTA,0.35
GACGCTATCGGGTTTCGGGACGTGCTA,2.32
GACGGACTGCTACTCCTGACGTGCTAG,-0.284
TTAGATATCGACTTTCGGTTAGTGCTA,3.6
TTAGGTTTCGACACTCGGTTAGTGCTA,8.24

# Study 4 — method: protein binding microarray; form: double-stranded DNA, one strand shown; sample: in vitro; concentration: not given; relative to: not given; reading: higher = stronger binding
# Target: Histone acetyltransferase KAT6A, both winged helices, GST fusion (KAT6A, Homo sapiens, UniProt Q92794, residues 1-181)
# Notes: 8-mer, flanks averaged, mean of 2 arrays, mostly near background
# Construct (chain): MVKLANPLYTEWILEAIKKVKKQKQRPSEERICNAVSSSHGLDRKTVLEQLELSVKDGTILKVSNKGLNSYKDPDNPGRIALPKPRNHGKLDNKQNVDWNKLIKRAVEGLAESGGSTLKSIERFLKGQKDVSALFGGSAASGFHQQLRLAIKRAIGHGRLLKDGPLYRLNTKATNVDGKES
Sequence,E-score
GCCCTCTA,-0.0241
AACCATAA,-0.013
GCGGTGCA,0.123
CGTGATTC,0.1
AGGAAAAT,-0.124
CAGCATAC,-0.0925
CATGTAGC,0.0284
GCCACCGC,0.245
CCTGAAGC,-0.16
TCGCAGCA,-0.00163
GTTTAGAA,0.0222
ACTGAAAT,-0.0771
AACCAGCT,-0.268
AGCATTCC,0.0681
TCAAACGA,0.111
GATAGCCC,-0.124
CGATAGTA,-0.0098

# Study 5 — target: CCNB3, cyclin fold, Cln2 fusion (human); method: yeast growth competition, sequencing; sample: yeast; notes: weak parent motif; relative to: not given; reading: higher = stronger binding
# Starting sequence: MICAL3 docking peptide (human); LQLRRQLSFSEDS; partner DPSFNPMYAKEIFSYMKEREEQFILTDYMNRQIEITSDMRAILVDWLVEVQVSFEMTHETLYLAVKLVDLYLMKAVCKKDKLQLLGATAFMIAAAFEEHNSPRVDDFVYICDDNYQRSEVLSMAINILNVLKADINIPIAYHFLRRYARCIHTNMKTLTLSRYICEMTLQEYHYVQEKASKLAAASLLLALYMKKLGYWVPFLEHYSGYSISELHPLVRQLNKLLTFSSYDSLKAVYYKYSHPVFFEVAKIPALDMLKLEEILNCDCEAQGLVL
Substitution,normalised enrichment score
S10Q,0.0407
L3Q,-0.105
S10Y,0.354
L3I,0.375
D12I,0.347
Q6N,0.154
L3D,0.0434
L7F,-0.394
F9R,0.372
F9I,-0.318
D12L,0.275
S10G,0.474
S8V,0.283
S10K,0.242
S8F,0.885
S8P,0.0425
S8I,0.395
L3F,0.284
Q6H,-0.108
R4D,-0.0167
E11F,-0.00764
L7N,-0.138
L3M,-0.148
Q6Y,0.345
L3P,0.278

# Single results of other studies
Molecule,target,assay,test system,conditions,how to read,endpoint,result
"PhoQ, residues 284 288 289 292 302 303 SMMNNA","PhoP, residues 12 14 15 18 19 TQAIL (Escherichia coli, UniProt P23836)","Sort-seq, refers to: YFP reporter",E. coli,"PhoQ-PhoP variant library, added: 10 µM Mg2+","relative to: high Mg2+ state, higher = stronger signaling",fold induction,22.4

# Repeated from above (study 4):
Sequence,E-score
AACCATAA,-0.013
GCGGTGCA,0.123
CGTGATTC,0.1
AGGAAAAT,-0.124
CAGCATAC,-0.0925
CATGTAGC,0.0284
GCCACCGC,0.245
CCTGAAGC,-0.16
TCGCAGCA,-0.00163
GTTTAGAA,0.0222
ACTGAAAT,-0.0771
AACCAGCT,-0.268
AGCATTCC,0.0681
TCAAACGA,0.111
GATAGCCC,-0.124
